Measurements pooled from the literature.
“And” joins repeats or separate records; there may be more than shown. ± marks the error that the study gave. Values after ≈ are worked out from the molar mass of the structure shown.

| Compound | target or system | assay | test system | setting | how to read | quantity | value |
| --- | --- | --- | --- | --- | --- | --- | --- |
| CN(C)CCC(=O)Nc1ccc(C2CCCCC2)cc1 | – | liver microsome stability | rat liver microsomes | 1 µM | – | hepatic clearance | 49 mL/min/kg |
| COc1ccc(Nc2cnnc3cc(-c4cnc(N5CCCN(C)CC5)nc4)ccc23)cc1Cl | Trypanosoma brucei | cell growth | – | – | – | EC50 | 260 ± 70 nM |
| O=c1[nH]c2ncsc2c(=O)n1O | Digitaria adscendens | – | – | 1500 g/ha, 21 days, post-emergence, glasshouse pot | – | growth inhibition | 20.9% |
| COc1ccccc1-c1cc(/C=C2\C(=O)Nc3ncc(Br)cc32)cc(Br)c1O | Trypanosoma brucei | – | – | unit not given | relative to: pEC50 T. brucei minus pTC50 HepG2 | selectivity | 1.4 |
| CC(C)Cc1ccc(C(C)C(=O)O)cc1 (centres unmarked) | Lactobacillus acidophilus | cell survival | – | 100 µM, 24 h | relative to: DMSO | inhibition | 73% |
| CCc1nc2[nH]c(=O)n(O)c(=O)c2s1 | Digitaria adscendens | – | – | 750 g/ha, 21 days, post-emergence, glasshouse pot | – | growth inhibition | 0% |
| CC(C)n1ncc2c(C(=O)NCC3(C)CNC3)cc(C3CC3)nc21 | Enterovirus D68 | viral replication | RD, US/MO/14-18947 | 1000 nM | – | plaque reduction | 95% and 90% |
| CC(=O)OC[C@@]1(C)[C@H]2CC[C@@H]3CN(C(C)C)[C@@H](C4=CCOC4=O)C[C@H]3[C@]2(C)CC[C@H]1OC(C)=O | Human coronavirus 229E | cytopathic effect | MRC5 | 25 µM, corrected for cytotoxicity | – | inhibition | 82.2% |
| O=c1[nH]c(CCl)nc2scc(-c3ccccc3)c12 | Trypanosoma brucei brucei | – | 449 Lister 427 bloodstream form | 24 h | relative to: EC50 HEK293 over EC50 T. brucei | selectivity index | 8.2 ± 4.2 |
| OB(O)c1csc2ccccc12 | Listeria monocytogenes | – | – | 100 µM, 10 h | relative to: untreated | growth | 51.8% and 71.2% and 73.5% and 68.3% |
| O=c1c(O)c(-c2ccc(O)cc2)oc2cc(O[C@@H]3O[C@H](CO)[C@@H](O)[C@H](O)[C@H]3O)cc(O)c12 | Streptococcus mutans | – | ATCC 700610 | – | – | MBC | 400 µg/mL (≈ 892 µM) |
| Br.CN(C)c1nc(=Nc2cccc(Cl)c2)ss1 | Mus musculus | gene silencing, high-content imaging | LDR reporter GFP cells | retest run 1 | – | maximal activity | 11% |
| N=C(N)c1ccc(OCc2cc(Br)cc(COc3ccc(C(=N)N)cc3)c2)cc1 | Escherichia coli | checkerboard | BW25113 | synergy at FICI ≤0.5, unit not given, with: novobiocin | lower = stronger synergy | FICI | ≤ 0.078 |
| CCN(CC)c1ccc2c(c1)oc(=O)c1c(Cl)cc(=O)oc12 | Mus musculus | gene silencing, high-content imaging | LDR reporter GFP cells | retest run 1 | – | maximal activity | 56% |
| CCn1c(-c2nonc2N)nc2c(C#CC(C)(C)O)nc(OC[C@@H](N)c3ccccc3)cc21 | Trypanosoma brucei | – | – | unit not given | relative to: pEC50 T. brucei minus pTC50 HepG2 | selectivity | 1.4 |
| COc1cc2c(cc1C(=O)Nc1ccc(C(C)(C)C)cc1)CCCCC2 | West Nile virus | viral replication | HEK293 | – | – | EC90 | 1000 nM |
| O=C(Nc1nc2cccc(-c3ccc(CN4CCS(=O)(=O)CC4)cc3)n2n1)C1CC1 | – | item: vomiting | rheumatoid arthritis patients | oral, 200 mg once daily, 4 weeks, any relatedness | – | treatment-emergent adverse events | 8.3% |
| Cc1cc(Nc2ccc(S(F)(F)(F)(F)F)cc2)n2nc(C(C)(F)F)nc2n1 | Plasmodium falciparum | microscopy | infected human patients | dose not given | – | parasite clearance lag phase | ≤ 40 h |
| O[C@H]1[C@H]2c3cc4c(cc3CN3CCC(=C[C@@H]1O)[C@H]23)OCO4 | Mus musculus | gene silencing, high-content imaging | LDR reporter GFP cells | retest run 2 | – | maximal activity | 68% |
| CN1CCN(C(=O)c2ccc(C3CCCCC3)cc2)CC1 | – | hepatocyte stability | cryopreserved rat hepatocytes | 1 µM | – | hepatic clearance | 45 mL/min/kg |
| CCCCN1C[C@H]2CC[C@@H]3[C@]4(C)COC(C)(C)O[C@@H]4CC[C@@]3(C)[C@@H]2C[C@@H]1C1=CCOC1=O | Human coronavirus 229E | cytopathic effect | MRC5 | 25 µM, corrected for cytotoxicity | – | inhibition | -0.4% |
| OC(Cn1cncn1)(Cn1cncn1)c1ccc(F)cc1F | Aspergillus niger | – | ITCC 7787 | 10 µg/mL | – | zone of inhibition | 23 mm |
| CC1(C)OC[C@@]2(C)[C@H]3CC[C@@H]4CN(Cc5ccc(F)c(Cl)c5)[C@@H](C5=CCOC5=O)C[C@H]4[C@]3(C)CC[C@H]2O1 | Human coronavirus 229E | cytopathic effect | MRC5 | 25 µM, corrected for cytotoxicity | – | inhibition | 20.7% |
| CN[C@H](CC(C)C)C(=O)N[C@H]1C(=O)N[C@@H](CC(N)=O)C(=O)N[C@H]2C(=O)N[C@H]3C(=O)N[C@H](C(=O)N[C@H](C(=O)O)c4cc(O)cc(O)c4-c4cc3ccc4O)[C@H](O)c3ccc(c(Cl)c3)Oc3cc2cc(c3O[C@@H]2O[C@H](CO)[C@@H](O)[C@H](O)[C@H]2O[C@H]2C[C@](C)(N)[C@H](O)[C@H](C)O2)Oc2ccc(cc2Cl)[C@H]1O | Staphylococcus epidermidis | – | methicillin-resistant, 10 isolates | serum 75% | – | MIC50 | 4 µg/mL (≈ 2.76 µM) |
| CCOC(=O)c1cnc2c([N+](=O)[O-])cc(C(F)(F)F)cc2c1NCc1ccc(C(F)(F)F)cc1 | Trypanosoma brucei brucei | resazurin viability | Lister 427, bloodstream form | – | relative to: HEK293 CC50 over T. brucei IC50 | selectivity ratio | ~3 |

| Compound | target or system | assay | test system | setting | how to read | quantity | value |
| --- | --- | --- | --- | --- | --- | --- | --- |
| Oc1cc(O)c2c(c1)O[C@H](c1cc(O)c(O)c(O)c1)[C@@H](O)C2 | Streptococcus mutans | broth microdilution | – | – | – | MBC/MIC ratio | 4 |
| COC(=O)[C@H](Cc1ccc(O)cc1)NCc1cc2ccccc2nc1SC | Pseudomonas aeruginosa | – | – | 4 µg/mL, with: pentamidine 100 µM | relative to: control | growth | 53.2% |
| CCCN1CCC(c2ccc(Nc3nc(Nc4cc(F)ccc4C(N)=O)c4cc[nH]c4n3)c(OC)c2)CC1 | Trypanosoma brucei | – | – | unit not given | relative to: pEC50 T. brucei minus pTC50 HepG2 | selectivity | 1.5 |
| CC1CCC(C(C)C)C(OC2=C(Cl)C(=O)c3ccccc3C2=O)C1 (centres unmarked) | Aspergillus niger | – | ITCC 7787 | 10 µg/mL | – | zone of inhibition | 16 mm |
| N#Cc1sc2nc(-c3ccccc3)cc(C(F)(F)F)c2c1N | Mus musculus | gene silencing, high-content imaging | LDR reporter GFP cells | retest run 1 | – | maximal activity | 20% |
| O=C1NC(=O)C(c2ccccc2Cl)=C1Nc1cccc(O)c1 | Trypanosoma brucei | – | – | unit not given | relative to: pEC50 T. brucei minus pTC50 HepG2 | selectivity | > 1.7 |
| CC(C)C[C@@H](C=O)NC(=O)[C@H](CC(C)C)NC(=O)[C@H](CC(C)C)NC(=O)OCc1ccccc1 | Mus musculus | gene silencing, high-content imaging | LDR reporter GFP cells | 30 h, retest, mean of two runs | – | Emax | 135% |
| C[C@@]12COCO[C@@H]1CC[C@]1(C)[C@@H]2CC[C@@H]2CN(Cc3ccccc3)[C@@H](C3=CCOC3=O)C[C@H]21 | Human coronavirus 229E | cytopathic effect | MRC5 | 25 µM, corrected for cytotoxicity | – | inhibition | 10.7% |
| [H]/N=C(\N/C(=N/[H])NCCCCCCNC(=N)NC(=N)Nc1ccc(Cl)cc1)Nc1ccc(Cl)cc1 | Streptococcus mutans | glycolytic acid production | – | MIC, first 15 min, 0.25 h, with: glucose 1% | – | initial rate of pH drop | 0.012 pH unit/min |
| CC(C)C(=O)N1CCN(c2ccc(NC(=O)c3ccc([N+](=O)[O-])o3)cc2Cl)CC1 | Mus musculus | gene silencing, high-content imaging | LDR reporter GFP cells | retest run 2 | – | maximal activity | 99% |
| COc1cc(C#CC(=O)c2ccccc2)ccc1O | Pseudomonas aeruginosa | static biofilm | PA14 | 10 µM, 24 h | relative to: DMSO | biofilm formation | 46% |
| COc1ccc2c(c1)c1ccc3c(c1n2C)C(=O)C=CC3=O | Mus musculus | gene silencing, high-content imaging | LDR reporter GFP cells | retest run 1 | – | maximal activity | 83% |
| CCn1c(=O)c(-c2cc[nH]n2)cc2c(C)nc(N)nc21 | Enterovirus A71 | histopathology | EV71-infected suckling mice, liver | 0.25 mg/kg | direction not given | total pathology score | 1 |
| COc1ccc(Nc2nc3c(S(=O)(=O)c4ccccc4)nnn3c3ccc(Cl)cc23)cc1 | Mus musculus | gene silencing, high-content imaging | LDR reporter GFP cells | retest run 2 | – | maximal activity | 36% |
| CN1CCC(n2cnc(-c3ccc(F)cc3)c2-c2ccnc(NCCO)n2)CC1 | Trypanosoma brucei | – | – | unit not given | relative to: pEC50 T. brucei minus pTC50 HepG2 | selectivity | > 1.8 |
| Cc1ccc(Cn2cc(C(=O)N/N=C/c3ccc([N+](=O)[O-])o3)c(=O)c3cc(Cl)ccc32)cc1 | Trypanosoma brucei brucei | resazurin viability | Lister 427 | – | relative to: CC50 HEK293 over EC50 parasite | selectivity ratio | 4.5 |
| C[n+]1cc(NC(=O)c2ccc3ccc4ccc(C(=O)Nc5cc6ccccc6[n+](C)c5)nc4c3n2)cc2ccccc21 | Trypanosoma brucei | RNA-seq | Lister 427 bloodstream form | 2 × EC50, 4 h, log2 FC 1, FDR 0.05 | relative to: untreated | differentially expressed genes | 294 genes |
| NS(=O)(=O)c1ccc(N/C=C2\C(=O)Nc3ccc4ncsc4c32)cc1 | Trypanosoma brucei | – | – | unit not given | relative to: pEC50 T. brucei minus pTC50 HepG2 | selectivity | > 2.5 |
| CC1(C)OC[C@@]2(C)[C@H]3CC[C@@H]4CN(Cc5ccc(C(F)(F)F)cc5)[C@@H](C5=CCOC5=O)C[C@H]4[C@]3(C)CC[C@H]2O1 | Human coronavirus 229E | cytopathic effect | MRC5 | 25 µM, corrected for cytotoxicity | – | inhibition | 81.1% |
| NS(=O)(=O)c1ccc(-c2cc3ccncc3cc2OCc2ccccc2)cc1 | Trypanosoma brucei | – | – | unit not given | relative to: pEC50 T. brucei minus pTC50 HepG2 | selectivity | > 0.7 |
| N=C(N)c1ccc(OCc2ccc(-c3ccccc3)cc2COc2ccc(C(=N)N)cc2)cc1 | Escherichia coli | checkerboard | 552100 clinical isolate | unit not given, with: rifampicin | lower = stronger synergy | FICI | 0.047 |
| COC(=O)[C@H](Cc1c[nH]c2ccccc12)NCc1cc2ccccc2nc1SC | Pseudomonas aeruginosa | – | – | 64 µg/mL, without pentamidine | relative to: control | growth | 96.9% |
| Nc1nc(Nc2ccc(S(N)(=O)=O)cc2)nn1C(=O)c1c(F)cccc1F | Trypanosoma brucei | cell growth | – | – | – | EC50 | 283 ± 44 nM |
| CC1(C)OC[C@@]2(C)[C@H]3CC[C@@H]4CN(Cc5cccs5)[C@@H](C5=CCOC5=O)C[C@H]4[C@]3(C)CC[C@H]2O1 | Human coronavirus 229E | cytopathic effect | MRC5 | 25 µM, corrected for cytotoxicity | – | inhibition | 39.3% |
| Cc1cc(OC(C)C)ccc1C(=O)C(C)(C)NC(=O)c1sccc1C | Sclerotinia sclerotiorum | mycelial growth | PSA medium | 20 °C | – | EC50 | 0.01 µg/mL |

Excerpt of the above:
| Compound | target or system | assay | test system | setting | how to read | quantity | value |
| --- | --- | --- | --- | --- | --- | --- | --- |
| N#Cc1sc2nc(-c3ccccc3)cc(C(F)(F)F)c2c1N | Mus musculus | gene silencing, high-content imaging | LDR reporter GFP cells | retest run 1 | – | maximal activity | 20% |
| O=C1NC(=O)C(c2ccccc2Cl)=C1Nc1cccc(O)c1 | Trypanosoma brucei | – | – | unit not given | relative to: pEC50 T. brucei minus pTC50 HepG2 | selectivity | > 1.7 |
| CC(C)C[C@@H](C=O)NC(=O)[C@H](CC(C)C)NC(=O)[C@H](CC(C)C)NC(=O)OCc1ccccc1 | Mus musculus | gene silencing, high-content imaging | LDR reporter GFP cells | 30 h, retest, mean of two runs | – | Emax | 135% |
| C[C@@]12COCO[C@@H]1CC[C@]1(C)[C@@H]2CC[C@@H]2CN(Cc3ccccc3)[C@@H](C3=CCOC3=O)C[C@H]21 | Human coronavirus 229E | cytopathic effect | MRC5 | 25 µM, corrected for cytotoxicity | – | inhibition | 10.7% |
| [H]/N=C(\N/C(=N/[H])NCCCCCCNC(=N)NC(=N)Nc1ccc(Cl)cc1)Nc1ccc(Cl)cc1 | Streptococcus mutans | glycolytic acid production | – | MIC, first 15 min, 0.25 h, with: glucose 1% | – | initial rate of pH drop | 0.012 pH unit/min |
